Published values pooled from the literature.
Every numbered part comes from another study and shows a few of its results, in no order. Substitutions count along the parent as printed.

Study 1 — method: DHFR PCA, deep sequencing; medium: yeast; together with: (+)-ABA 0.39 µM; relative to: wild-type fitted maximum; direction: higher = stronger binding
Target: ABI1, truncated, D143A, DHFR fusion (Arabidopsis thaliana)
Notes: methotrexate growth selection, single substitutions
Parent: PYL1, truncated, DHFR fusion (Arabidopsis thaliana); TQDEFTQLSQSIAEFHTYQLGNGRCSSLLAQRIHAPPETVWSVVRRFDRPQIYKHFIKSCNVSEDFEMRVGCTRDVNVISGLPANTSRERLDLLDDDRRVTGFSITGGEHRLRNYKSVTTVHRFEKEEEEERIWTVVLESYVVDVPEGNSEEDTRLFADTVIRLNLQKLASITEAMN
Substitution	relative binding score [%]
R98S	-2.05
L94Q	-16.6
L93C	22.6
R113H	32
T120F	-7.16
V118R	55.4
R98D	2.45
A84Q	20.9
Y141H	5.78
V143F	2.91
V43T	5.8
L164W	16.2
D92F	-9.49
I162M	3.92
K126F	37
S11C	43
A158I	63.9

Study 2 — method: RNA Bind-n-Seq; form: RNA; medium: in vitro; tested at: 365 nM; relative to: no-protein control; direction: higher = stronger binding
Target: RNA binding protein fox-1 homolog 2, RRM domain, GST-SBP tag (RBFOX2, Homo sapiens, UniProt O43251-10, residues 100-194)
Notes: natural RNA segment, single round, ends assumed
Constant ends, left off below: GGGAGUUCUACAGUCCGACGAUC … UGGAAUUCUCGGGUGCCAA
Strand	RBNS enrichment (R)
UGUGCUUGGGGUCAGGAGUGCCAGGUUCCCAAGAGCAGCGUAAAACAUCCCUGUACCCCUUGACAGUUAUAAGCAUUUCUGCGUUAAACUUGAAGAUUCCAGAGAUUCCC	1.2
CUCCGGCCCCCGUCUUGUAAAAAGGGGAGGAGAAUUAGCCAAACACUGUAAGCUUUUAAGAAAAACAAAGUUUUAAACGAAAUACUGCUCUGUCCAGAGGCUUUAAAACU	1.78
UGGUUCAGCAUACCUUAUAGUUCGUAUAUAACCUGUAUUAAUUGUAUAGAUUGUGCAUUUAAAGCUGUUACCAAGUUGUCAGAACCCUAAGAAUGAAAACAGGUCAUAUG	2.53
UGAAUUUCUGCCAGGAUUGAAUUAUUUUGAAAUCUCCUGUCUUUUUAAACUUUUUCAAAAUAGGUCUCUAAGGAAAACCAGCAGAACAUUAGCCUGUGCAAAACCAUCUG	0.56
UUCUGCUAAGGUGGUGAGGUCGCCAACACUGGCAUGUCUCGGUAGUGGUUUGGGCAAAUUUCUGCAGGUCCCUUCCCCCCAACCCCGUCUCUGAUGAAUAAAGACCAUGA	0.761
CUGAAUGAUUUCCAAAGAGAAAAAAAGUUUGCCAGAAGUUUGUCAAGUCAACCAAUGUAGAAAGCUUUGCUUAUGGUAAUAAAAAUGGCUCAUACUUAUAUAGCACUUAC	0.674
GUGGGCUGGAACGGUUCCACCUUCGCUUGAGUCCUGGCCCCACUUACCUGCACCGCUGUUCUUUGAGCCUCGCUCCACGUAGUGUUCUGUGUUUAUCCACCGGUAGCGAU	0.934
UUUUUGUAUUUAAUUGACAUGAAUGUAAAGGGGACAGCUCAGGGUUGUUUUGGAGCCUGUUGACUUUGUAUCUCUGCCUGUGAUUUUCUUUUCUAAAUGAAACUCCAUGU	1.29

Study 3 — target: CCND3, cyclin fold, Cln2 fusion (human); method: yeast growth competition, sequencing; medium: yeast; notes: weak parent motif; relative to: not given; direction: higher = stronger binding
Parent: CDC25A docking peptide (human); PPHRRRLLFACSP
Substitution	normalised enrichment score
PPHRRRLHFACSP [L8H]	0.102
PPQRRRLLFACSP [H3Q]	0.111
PPHRRRLLFACSH [P13H]	0.136
PPHRRRLLFARSP [C11R]	0.119
PPHRRRLLLACSP [F9L]	0.307
PRHRRRLLFACSP [P2R]	0.212
HPHRRRLLFACSP [P1H]	0.156
PPHRRRLLFACWP [S12W]	0.156
VPHRRRLLFACSP [P1V]	0.0961
PPHRRTLLFACSP [R6T]	0.13
PPHRRWLLFACSP [R6W]	0.226
PPHRRRLLFRCSP [A10R]	0.15
PVHRRRLLFACSP [P2V]	0.0734
PPHRRRLLHACSP [F9H]	0.121
PPHRRRLLFAISP [C11I]	0.141
PPHRRRLLFACSE [P13E]	0.158
PPHRRRLTFACSP [L8T]	0.144
PPHDRRLLFACSP [R4D]	0.117
PPHPRRLLFACSP [R4P]	0.11
PPHRRRLLFACSV [P13V]	0.124
PPHRRRLLAACSP [F9A]	0.155
PPHRRRQLFACSP [L7Q]	0.121
PPHRRRLSFACSP [L8S]	0.0535
PPHRRRLLFACSA [P13A]	0.15
PPHRRRLLFACPP [S12P]	0.13

Study 4 — method: protein-binding microarray; form: double-stranded DNA, one strand shown; medium: in vitro; tested at: 250 nM; notes: 60-bp whole probe; together with: salmon DNA 0.4 mg/ml; relative to: random background probes; direction: higher = stronger binding; constant ends, left off below: GCCTAGCAC … GTCTTGATTCGCTTGACGCTGCTG
Target: Interferon regulatory factor 5, full length, phosphomimetic (IRF5, Homo sapiens, UniProt Q13568-2, residues 1-514, K96S/S451D/S453D/S456D/S462D)
Strand	log fluorescence
TCATATTTATAAATTATACTGTGCTAG	0.813 z-score
TCACAGCTCCCTTTCTCACTGTGCTAG	0.135 z-score
TTAGCTTTCCTACTGCTTTAGTGCTAG	0.612 z-score
TTAGGTATCGGGACTGGCTTAGTGCTA	1.83 z-score
TTAGGCATCCTTCTCCTTTAGTGCTAG	-0.371 z-score
TACGATTTCAGACTGGAGACGTGCTAG	0.26 z-score
TAAGGTTTCCAATCAGCCCCGTGCTAG	0.0109 z-score
GACGATTTCAGCCTCGAGACGTGCTAG	0.649 z-score
TTAGATTACAGTATCGATTAGTGCTAG	6.3 z-score
GACGAACTGAGTCTCAAGACGTGCTAG	-0.211 z-score
GACGGTCTCCTTTACCTGACGTGCTAG	-0.0443 z-score
GACGGTTTCAACTTTCGGGACGTGCTA	5.75 z-score
GACGGTATCCTTATCATGACGTGCTAG	0.312 z-score
TTAGGTTCCCTTTTCCTATAGTGCTAG	0.702 z-score
TTATATTTTAATCACATATAGTGCTAG	0.967 z-score
GACGATCTCAATCTCGAGACGTGCTAG	-0.137 z-score
TTAGATCTCAGACTGTATTAGTGCTAG	0.103 z-score
TTAGGACTGCTACTGCTTTGGTGCTAG	-0.46 z-score

Excerpt of the above (study 2):
Strand	RBNS enrichment (R)
UGGUUCAGCAUACCUUAUAGUUCGUAUAUAACCUGUAUUAAUUGUAUAGAUUGUGCAUUUAAAGCUGUUACCAAGUUGUCAGAACCCUAAGAAUGAAAACAGGUCAUAUG	2.53
UGAAUUUCUGCCAGGAUUGAAUUAUUUUGAAAUCUCCUGUCUUUUUAAACUUUUUCAAAAUAGGUCUCUAAGGAAAACCAGCAGAACAUUAGCCUGUGCAAAACCAUCUG	0.56
UUCUGCUAAGGUGGUGAGGUCGCCAACACUGGCAUGUCUCGGUAGUGGUUUGGGCAAAUUUCUGCAGGUCCCUUCCCCCCAACCCCGUCUCUGAUGAAUAAAGACCAUGA	0.761
CUGAAUGAUUUCCAAAGAGAAAAAAAGUUUGCCAGAAGUUUGUCAAGUCAACCAAUGUAGAAAGCUUUGCUUAUGGUAAUAAAAAUGGCUCAUACUUAUAUAGCACUUAC	0.674
GUGGGCUGGAACGGUUCCACCUUCGCUUGAGUCCUGGCCCCACUUACCUGCACCGCUGUUCUUUGAGCCUCGCUCCACGUAGUGUUCUGUGUUUAUCCACCGGUAGCGAU	0.934
